{"data": "Assay results gathered from unrelated publications", "note": "Every numbered part comes from another study and shows a few of its results, in no order. Substitutions count along the parent as printed."}
{"data": "Sample 1", "target": "TAR DNA-binding protein 43, full length, His tag (TARDBP, Homo sapiens, UniProt Q13148, residues 1-414)", "method": "RNA Bind-n-Seq", "molecule type": "RNA", "medium": "in vitro", "tested at": "20 nM", "setting": "6-mer, flanks averaged, single round", "with": "150 mM LiCl", "baseline": "input library", "reading": "higher = stronger binding"}
{"Oligonucleotide": "UGGAGC", "6-mer enrichment (R)": 1.04}
{"Oligonucleotide": "GCCAAU", "6-mer enrichment (R)": 0.917}
{"Oligonucleotide": "AGGACA", "6-mer enrichment (R)": 0.9}
{"Oligonucleotide": "GGGCUC", "6-mer enrichment (R)": 0.991}
{"Oligonucleotide": "UUAAUU", "6-mer enrichment (R)": 1.08}
{"Oligonucleotide": "UUCGGG", "6-mer enrichment (R)": 0.981}
{"Oligonucleotide": "AAGAAA", "6-mer enrichment (R)": 0.862}
{"Oligonucleotide": "AGAAAA", "6-mer enrichment (R)": 0.843}
{"Oligonucleotide": "CACCUG", "6-mer enrichment (R)": 0.896}
{"data": "Sample 2", "target": "RNA binding protein fox-1 homolog 2, RRM domain, GST-SBP tag (RBFOX2, Homo sapiens, UniProt O43251-10, residues 100-194)", "method": "RNA Bind-n-Seq", "molecule type": "RNA", "medium": "in vitro", "tested at": "365 nM", "setting": "natural RNA segment, single round, ends assumed", "baseline": "no-protein control", "reading": "higher = stronger binding"}
{"Oligonucleotide": "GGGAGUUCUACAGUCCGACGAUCGGAAUUAAUUUAUCAGCAGCCUAAAACUGUUGUGUUUUUCUUAUGGUUUAAAAAACGCCAUGUCAUUGAUAACUCCCUUUCUCCCUUCCCUUCUCCCGGUCUGCUGAUCAUGGAAUUCUCGGGUGCCAA", "RBNS enrichment (R)": 0.438}
{"Oligonucleotide": "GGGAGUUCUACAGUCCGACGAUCGGAGGUGUCCUGUCUUUUUAAAAUCAGUGCCAAGUGUGUCAGCAGGGGGCAUGAACAAAAACCAGUGCCUCGUUGUGCACAGUCCUCUAAAAGUAGCAUUCUUAUCUGUUUGGAAUUCUCGGGUGCCAA", "RBNS enrichment (R)": 0.429}
{"Oligonucleotide": "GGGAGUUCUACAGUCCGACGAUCGCAUGUACCACAAAACAGUAGUACUUUAACCCCUAAUGCCACGUCUCCCCAUCAGCUGCCGGUUUUGUCUUUAACCUGCUAUCAUCUCUUCUCCUGCCCCUCCCUCCCCAUGGAAUUCUCGGGUGCCAA", "RBNS enrichment (R)": 5.72}
{"Oligonucleotide": "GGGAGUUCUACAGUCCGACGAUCCCAGAUACCAUGAUGCUGAGCCCGGAAACUCCACAUCCUGUGGGACCUGGGCCAUAGUCAUUCUGCCUGCCCUGAAAGUCCCAGAUCAAGCCUGCCUCAAUCAGUAUUCAUGGAAUUCUCGGGUGCCAA", "RBNS enrichment (R)": 0.424}
{"Oligonucleotide": "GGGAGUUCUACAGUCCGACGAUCACAUUGUACAUUUAGUGUGUGUAUUUUAAUAAUGGUUGAUCUUAAAUCUGUAUACAAAAUAUCACUGAUAUAAUGAACUCUCUCUCUCUAGACAAGAUAAAUUUUGCCUCUGGAAUUCUCGGGUGCCAA", "RBNS enrichment (R)": 0.588}
{"Oligonucleotide": "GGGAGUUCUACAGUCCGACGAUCUGAGGCUACAAACAAUCUAUGGUUCCAAAUCCUAUGUGCUUACUGCCGUCUUCUCUUAGAAGGGGAUGCAGUACUGUACAAAGAUUGAGCUGGAUGUCGCAUUGCAUGUUUGGAAUUCUCGGGUGCCAA", "RBNS enrichment (R)": 3.56}
{"Oligonucleotide": "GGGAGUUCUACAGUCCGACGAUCACAGCCCCAGGGGCCUUGAGGGUCUGAGGUCCCAGCCCUGUUGCCAAGUGACCUUGUCCCCAGCUCCCUCCUCCCAGGCUGGUGUGAGUGUGCGUGCGUUUGUGCCGAGCUGGAAUUCUCGGGUGCCAA", "RBNS enrichment (R)": 1.6}
{"Oligonucleotide": "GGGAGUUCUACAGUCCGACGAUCCAUUUGCUUGUUGUACAGUUUCUUGUAGUUUAUUUUUUAAUAGAUUUGAAUAAAACCUAAAUAGCGCAUCCCUUUGGUUCUGGUUUAAUGUACCAACAAGGCUUCCCUGAUGGAAUUCUCGGGUGCCAA", "RBNS enrichment (R)": 1.42}
{"data": "Sample 3", "target": "Sal-like protein 4, full length isoform B (SALL4, Homo sapiens, UniProt Q9UJQ4-2, residues 1-616)", "method": "universal PBM", "molecule type": "double-stranded DNA, one strand shown", "medium": "in vitro", "tested at": "not given", "setting": "8-mer, flanks averaged, mean of replicates", "reading": "higher = stronger binding", "Target sequence (chain)": "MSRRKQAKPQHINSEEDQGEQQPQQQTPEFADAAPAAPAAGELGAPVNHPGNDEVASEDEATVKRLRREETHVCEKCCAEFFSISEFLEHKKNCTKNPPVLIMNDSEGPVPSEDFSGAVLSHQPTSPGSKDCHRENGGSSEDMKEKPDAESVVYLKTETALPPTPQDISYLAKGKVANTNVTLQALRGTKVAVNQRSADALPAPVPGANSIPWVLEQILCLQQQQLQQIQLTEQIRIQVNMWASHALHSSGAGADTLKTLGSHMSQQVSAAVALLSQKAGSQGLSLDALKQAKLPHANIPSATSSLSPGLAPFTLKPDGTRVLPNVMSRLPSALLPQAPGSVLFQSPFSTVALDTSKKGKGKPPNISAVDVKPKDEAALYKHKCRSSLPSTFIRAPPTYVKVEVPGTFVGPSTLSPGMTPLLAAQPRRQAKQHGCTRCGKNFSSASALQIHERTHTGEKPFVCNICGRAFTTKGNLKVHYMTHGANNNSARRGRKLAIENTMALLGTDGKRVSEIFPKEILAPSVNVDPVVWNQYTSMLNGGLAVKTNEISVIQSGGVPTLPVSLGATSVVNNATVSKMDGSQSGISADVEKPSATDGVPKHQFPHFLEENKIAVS"}
{"Oligonucleotide": "ATGACCGA", "E-score": 0.124}
{"Oligonucleotide": "ACGATAGG", "E-score": 0.0817}
{"Oligonucleotide": "GCCGAAGA", "E-score": -0.138}
{"Oligonucleotide": "CTCGCGAG", "E-score": -0.221}
{"Oligonucleotide": "AGAACCAG", "E-score": -0.101}
{"Oligonucleotide": "TACTCTCA", "E-score": 0.119}
{"Oligonucleotide": "CCATCGCC", "E-score": -0.24}
{"Oligonucleotide": "GCCGTGCA", "E-score": -0.15}
{"Oligonucleotide": "ATGAGTTC", "E-score": 0.0909}
{"Oligonucleotide": "AAGAGACC", "E-score": -0.15}
{"Oligonucleotide": "TCATAGAA", "E-score": 0.219}
{"Oligonucleotide": "ACTCAAAT", "E-score": 0.187}
{"Oligonucleotide": "CGTCGCAA", "E-score": -0.0931}
{"Oligonucleotide": "CCAGTAGG", "E-score": -0.222}
{"Oligonucleotide": "CGAATTTA", "E-score": 0.159}
{"Oligonucleotide": "CGGAACGC", "E-score": -0.263}
{"Oligonucleotide": "AGCTGTGA", "E-score": -0.0315}
{"Oligonucleotide": "AGGATACT", "E-score": 0.0386}
{"Oligonucleotide": "AGGAAGAT", "E-score": -0.0377}
{"Oligonucleotide": "ATCTGCAG", "E-score": -0.0226}
{"Oligonucleotide": "TTAATGAA", "E-score": 0.34}
{"Oligonucleotide": "AAAGGGTC", "E-score": -0.0367}
{"Oligonucleotide": "GGGGGAGA", "E-score": -0.105}
{"Oligonucleotide": "GCTTAACA", "E-score": 0.104}
{"Oligonucleotide": "CAGCCATC", "E-score": -0.235}
{"data": "Sample 4", "target": "PABPC1L2, full length, GST fusion (mouse, UniProt A0ABA7IW68)", "method": "RNAcompete", "molecule type": "RNA", "medium": "in vitro", "tested at": "20 nM", "setting": "7-mer, probes averaged, single round", "baseline": "mean of 7-mers", "reading": "higher = stronger binding", "Residues (chain)": "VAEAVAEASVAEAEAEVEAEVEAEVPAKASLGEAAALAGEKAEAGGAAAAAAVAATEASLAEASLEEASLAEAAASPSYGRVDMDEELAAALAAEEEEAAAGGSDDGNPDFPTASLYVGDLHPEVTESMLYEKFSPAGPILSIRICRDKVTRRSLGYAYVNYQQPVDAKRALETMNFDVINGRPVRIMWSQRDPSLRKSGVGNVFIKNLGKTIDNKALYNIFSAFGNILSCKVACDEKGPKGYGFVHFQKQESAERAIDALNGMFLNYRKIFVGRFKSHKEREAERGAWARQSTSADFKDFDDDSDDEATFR"}
{"Oligonucleotide": "ACAUGAC", "7-mer Z-score": 0.104}
{"Oligonucleotide": "UUGCAUG", "7-mer Z-score": -0.197}
{"Oligonucleotide": "CUCCUUU", "7-mer Z-score": -0.267}
{"Oligonucleotide": "UGAUCCG", "7-mer Z-score": -0.277}
{"Oligonucleotide": "CAUGGGU", "7-mer Z-score": -0.0573}
{"Oligonucleotide": "GCUCCCG", "7-mer Z-score": -0.255}
{"Oligonucleotide": "GAAUUUU", "7-mer Z-score": -0.286}
{"Oligonucleotide": "CAAUUCU", "7-mer Z-score": -0.132}
{"Oligonucleotide": "GCCCGGA", "7-mer Z-score": -0.0264}
{"Oligonucleotide": "CGGCACU", "7-mer Z-score": -0.128}
{"Oligonucleotide": "GUUUUGC", "7-mer Z-score": -0.469}
{"Oligonucleotide": "AGGUUCA", "7-mer Z-score": -0.204}
{"Oligonucleotide": "ACUCUCA", "7-mer Z-score": -0.34}
{"Oligonucleotide": "GCACCGG", "7-mer Z-score": -0.0337}
{"Oligonucleotide": "CUGAGCA", "7-mer Z-score": -0.0101}
{"Oligonucleotide": "CUUAGGU", "7-mer Z-score": -0.284}
{"Oligonucleotide": "GCACUGU", "7-mer Z-score": -0.142}
{"Oligonucleotide": "GCAGUGU", "7-mer Z-score": 0.0424}
{"Oligonucleotide": "GCUAUAA", "7-mer Z-score": 0.296}
{"Oligonucleotide": "UGAGUGC", "7-mer Z-score": -0.184}
{"data": "Sample 5", "target": "Histone acetyltransferase KAT6A, winged helix 2, GST fusion (KAT6A, Homo sapiens, UniProt Q92794, residues 85-181)", "method": "protein binding microarray", "molecule type": "double-stranded DNA, one strand shown", "medium": "in vitro", "tested at": "not given", "setting": "8-mer, flanks averaged, mean of 2 arrays, mostly near background", "baseline": "not given", "reading": "higher = stronger binding", "Target sequence (chain)": "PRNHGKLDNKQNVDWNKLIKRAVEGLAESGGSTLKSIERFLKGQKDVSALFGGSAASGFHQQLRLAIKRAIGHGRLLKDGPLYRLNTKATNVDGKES"}
{"Oligonucleotide": "AACACATA", "E-score": 0.063}
{"Oligonucleotide": "ACGTTTTC", "E-score": -0.136}
{"Oligonucleotide": "GACGTCGA", "E-score": 0.0501}
{"Oligonucleotide": "CCTAGTAG", "E-score": -0.147}
{"Oligonucleotide": "ACAGGTAC", "E-score": -0.151}
{"Oligonucleotide": "ATTGACGA", "E-score": -0.0218}
{"Oligonucleotide": "AAAACCCA", "E-score": 0.122}
{"Oligonucleotide": "TCATGAGA", "E-score": -0.0761}
{"Oligonucleotide": "GGACTGAA", "E-score": 0.0971}
{"Oligonucleotide": "ATGGCTGC", "E-score": 0.0419}
{"Oligonucleotide": "CGGTTCAC", "E-score": -0.0664}
{"Oligonucleotide": "TTTACAAA", "E-score": 0.115}
{"Oligonucleotide": "CCAATCGC", "E-score": -0.0429}
{"Oligonucleotide": "GAAATATA", "E-score": 0.0674}
{"Oligonucleotide": "GCGAGGAC", "E-score": 0.0179}
{"Oligonucleotide": "CACTACCA", "E-score": 0.0518}
{"Oligonucleotide": "ACATAGCC", "E-score": -0.0309}
{"Oligonucleotide": "AACTGACA", "E-score": -0.0741}
{"data": "Sample 6", "target": "ABI1, truncated, D143A, DHFR fusion (Arabidopsis thaliana)", "method": "DHFR PCA, deep sequencing", "medium": "yeast", "setting": "methotrexate growth selection, single substitutions", "with": "(+)-ABA 1.4 µM", "baseline": "wild-type fitted maximum", "reading": "higher = stronger binding", "starting sequence": "PYL1, truncated, DHFR fusion (Arabidopsis thaliana); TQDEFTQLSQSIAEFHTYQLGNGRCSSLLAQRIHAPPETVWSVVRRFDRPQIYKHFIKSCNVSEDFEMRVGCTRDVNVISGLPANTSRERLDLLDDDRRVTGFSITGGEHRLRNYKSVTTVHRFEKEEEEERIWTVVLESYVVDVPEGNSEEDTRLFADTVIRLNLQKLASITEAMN"}
{"Variant": "F5D", "relative binding score [%]": 21}
{"Variant": "N165I", "relative binding score [%]": 6.73}
{"Variant": "A84R", "relative binding score [%]": 0.647}
{"Variant": "L138V", "relative binding score [%]": 4.32}
{"Variant": "Y53T", "relative binding score [%]": -0.33}
{"Variant": "E129S", "relative binding score [%]": 64.9}
{"Variant": "Q10I", "relative binding score [%]": 22.7}
{"Variant": "L29G", "relative binding score [%]": 4.73}
{"Variant": "V62D", "relative binding score [%]": 7}
{"Variant": "E4C", "relative binding score [%]": 46.7}
{"Variant": "K126C", "relative binding score [%]": 76.6}
{"Variant": "E14H", "relative binding score [%]": 8.94}
{"Variant": "T106I", "relative binding score [%]": 99.5}
{"Variant": "R24S", "relative binding score [%]": 34.2}
{"Variant": "M176V", "relative binding score [%]": 40.8}
{"Variant": "R123M", "relative binding score [%]": 33.5}
{"Variant": "L94T", "relative binding score [%]": 5.21}
